Measurements gathered from unrelated publications.
Each line is one published result; not all experiments were run side by side. “And” joins repeats or separate records; there may be more than shown. ± marks the error that the study gave.

C[C@@H](O)CCOC(=O)C[C@@H](C)O  plasma insulin (human; oral drink, dose not given, 30 min post dose, median, all participants): 1460 pg/mL
CCCCC1(CCCC)CN(c2ccccc2)c2cc(SC)c(OCC(=O)N[C@@H](C(=O)NCC(=O)O)c3ccccc3)cc2S(=O)(=O)C1  plasma C4 (measured: 7α-hydroxy-4-cholesten-3-one; human, plasma; 2.5 mg once daily, day 11): 25.7 ng/mL
O=c1cc(-c2ccccc2)oc2cc(O)c(O)c(O)c12  aortic wall plaque area (Oil Red O staining; ApoE-/- mouse on high-fat diet; oral gavage, 20 doses every three days, 72 h): 6.5 ± 3.24%
N#Cc1ccc2c(c1)[C@H]1CCCN(C(=O)c3ccc4[nH]cnc4c3)[C@H]1C2  change from baseline (measured: Triglycerides; human; 240 mg once daily, day 28, adjusted mean): -57.1 mg/dL
CSCCNc1nc(SCCC(F)(F)F)nc2c1ncn2[C@@H]1O[C@H](COP(=O)(O)OP(=O)(O)C(Cl)(Cl)P(=O)(O)O)[C@@H](O)[C@H]1O  inhibition of platelet aggregation (light transmittance aggregometry; human patients, platelet-rich plasma; dose not given, 2 h, together with: ADP 5 µM): 43.5 ± 22.9%
Cc1nn(-c2nc3c(F)cc(F)cc3s2)c(O)c1C(c1ccc(C(F)(F)F)cc1)c1c(C)nn(-c2nc3c(F)cc(F)cc3s2)c1O  histology score (measured: pancreatic oedema; mouse, cerulein-induced acute pancreatitis; 25 mg/kg; direction not given): 0 and 1
CC(C)NCC(O)c1ccc(O)c(O)c1 (stereo not shown)  sarcomere length (ventricular cardiomyocytes, C57BL/6 mouse; dose not given, 0.296 s): 1.72 µm
COc1cc2cc(-c3ccc(CC(=O)Nc4cc(C(C)(C)C(F)(F)F)no4)cn3)cnc2cc1OC  stable disease as best response (human RET fusion-positive NSCLC; 75 mg, phase I, RECIST 1.1): 53%
C[C@H](Oc1ccc(Br)cc1-c1ccon1)C(=O)O  difference from placebo (last response peak; human, tibialis anterior muscle; 400 mg, 30 Hz, single ascending dose): 12.1%
c1ccc(-c2n[nH]cc2-c2ccnc3ccccc23)nc1  log2 fold change (kinase binding, competitor, MIB/MS competition, measured: CKA1; Candida albicans cell lysate; 1 µM; reference: DMSO): 1.35
C[C@H]1C[C@H]2CSC(N)=N[C@@]2(c2nc(NC(=O)c3ccc(OC(F)F)cn3)cs2)CO1  percent change from baseline (measured: Aβ1-40; healthy adults, plasma; 275 mg once daily, day 1; reference: placebo): -88.3%
O=C(O)CNC(=O)Cc1ccccc1  sarcomere length (ventricular cardiomyocytes, C57BL/6 mouse; dose not given, 0.248 s): 1.65 µm
Cn1cc([C@H]2C[C@H]3CSC(N)=N[C@@]3(c3ccc(F)cc3F)CO2)cn1  brain Aβ40 level (measured: Aβx-40; wild-type mouse, brain; subcutaneous, 10 mg/kg, 13 h): 2.96 ng/g
CC(C)[C@H](C(=O)Nc1ccc(C(=O)NO)cc1)c1ccccc1  tumour volume (volumetric MRI; human, right vagal schwannoma; dose not given, day 995): 9.8 cm3
CN[C@@H]1COc2c(S(=O)(=O)NC(=O)Nc3c4c(cc5c3CCC5)CCC4)cnn2C1  inhibition (measured: IL-18; human participants, whole blood ex vivo; 900 mg single dose, 72 h, IL-18, circulating, adjusted for, together with: LPS/ATP; reference: baseline): 42.1%
OC(CCN1CCCCC1)(c1ccccc1)C1CC2C=CC1C2 (stereo not shown)  EEG Beta2-power Pz-O1 (resting-state EEG; healthy elderly humans; oral, 4 mg, eyes closed, LS mean): 1 µV²
O=C(NC[C@H]1CN(c2ccc(N3CCOCC3=O)cc2)C(=O)O1)c1ccc(Cl)s1  prothrombin time AUC(0-48h) (human mild renal impairment, plasma; 10 mg, geometric mean, unit not given; reference: baseline): 99.5
CN(C(=O)n1cnc(-c2ccc[n+]([O-])c2)c1)C1CCCCC1  change in licking score (mice, formalin paw test; 3 mg/kg, late phase, together with: anandamide 5 mg/kg i.p.; reference: anandamide alone, direction not given): -86%
NC(=O)c1cnc2[nH]ccc2c1N[C@@H]1[C@@H]2CC3C[C@H]1C[C@@](O)(C3)C2  total memory T-cell change (flow cytometry; Japanese healthy men, blood; oral, 60 mg single dose, 24 h; reference: baseline): 0.83%

A few entries again:
CN[C@@H]1COc2c(S(=O)(=O)NC(=O)Nc3c4c(cc5c3CCC5)CCC4)cnn2C1  inhibition (measured: IL-18; human participants, whole blood ex vivo; 900 mg single dose, 72 h, IL-18, circulating, adjusted for, together with: LPS/ATP; reference: baseline): 42.1%
